# Published values collected from several papers.
# Each line is one published result; not all experiments were run side by side. Values joined by “and” are separate records of one study, mostly repeats; a detail may differ. ± marks the error that the study gave.
SMILES,target or system,test,test system,setting,scale,measurement,value
O=C(O)c1ccc(-c2nc(-c3ccccc3Cl)c3sccn23)cc1,K562,"erythroid differentiation, flow cytometry",,"0.01 mM, 48 h",,CD235a-positive cells,87.5% and 75.8%
O=C1NC2(CC2)COc2ncc(F)cc2[C@H]2COCCN2c2ccn3ncc1c3n2,,,"Sprague-Dawley rat, male, heart","oral, 20 mg/kg/day, 4 weeks dosing, end of recovery",,organ-to-brain weight ratio,77.9 ± 9.34%
CC(C)C[C@H](NC(=O)[C@H](CC(=O)O)NC(=O)CNC(=O)[C@@H](N)CCCNC(=N)N)C(=O)N[C@@H](C)C(=O)N[C@H](C(=O)N[C@@H](CC(C)C)C(=O)N[C@@H](CCCNC(=N)N)C(=O)N[C@@H](CCC(N)=O)C(=O)N[C@@H](CC(C)C)C(=O)N[C@@H](C)C(=O)N[C@@H](CCC(N)=O)C(=O)N[C@@H](CCC(=O)O)C(=O)N[C@@H](CC(=O)O)C(=O)NCC(=O)N[C@H](C(=O)N[C@H](C(=O)NCC(=O)N[C@H](C(=O)N[C@@H](CCCNC(=N)N)C(=O)NCCOCCOCCOCCOCCOCCOCCOCCOCCOCCOCCOCCOCCC(=O)N[C@@H](CS)C(N)=O)C(C)C)C(C)C)C(C)C)[C@@H](C)O,Huh-7 liver cancer,phage binding,,,relative to: targeting over control phage,selectivity ratio,2.9 ± 1.6
O=C1C(Cl)=C(Cl)C(=O)c2ccccc21,HepG2,MTT,,,relative to: IC50 MRC-5 over IC50 HepG2,selectivity index,1.04
CC[C@H](C)[C@H](NC(=O)[C@H](C)NC(=O)CNC(=O)[C@H](Cc1ccccc1)NC(=O)[C@H](CC(N)=O)NC(=O)[C@H](CC(N)=O)NC(=O)[C@H](CO)NC(=O)[C@H](CO)NC(=O)[C@H](Cc1c[nH]cn1)NC(=O)[C@@H](NC(=O)[C@H](CC(C)C)NC(=O)[C@H](Cc1ccccc1)NC(=O)[C@H](CC(N)=O)NC(=O)[C@H](C)NC(=O)[C@H](CC(C)C)NC(=O)[C@H](CCCNC(=N)N)NC(=O)[C@H](CCC(N)=O)NC(=O)[C@@H](NC(=O)[C@H](C)NC(=O)[C@@H]1CSSC[C@H](NC(=O)[C@@H](N)CCCCN)C(=O)N[C@@H](CC(N)=O)C(=O)N[C@@H]([C@@H](C)O)C(=O)N[C@@H](C)C(=O)N[C@@H]([C@@H](C)O)C(=O)N1)[C@@H](C)O)C(C)C)C(=O)N[C@@H](CC(C)C)C(=O)N[C@@H](CO)C(=O)N[C@@H](CO)C(=O)N[C@H](C(=O)N[C@@H](CC(N)=O)C(=O)N[C@H](C(=O)NCC(=O)N[C@@H](CO)C(=O)N[C@@H](CC(N)=O)C(=O)N[C@H](C(=O)N[C@@H](Cc1ccc(O)cc1)C(N)=O)[C@@H](C)O)C(C)C)[C@@H](C)O,RIN-m5F,"colocalization microscopy, item: mitochondrial marker",,"10 µM, 24 h",,Pearson colocalization coefficient,< 0.3
O=C(C[Se]C(=O)c1cc2ccccc2o1)Nc1cccc(C(F)(F)F)c1,NCI60 CNS subpanel,NCI60 five-dose screen,,,,CC50,6.12 µM
CNC(=S)N/N=C/c1ccc(OCc2ccccc2)cc1,IMR-32,,,"400 µg/mL, 24 h",higher = more activity,catalase activity (OD450),0.067 a.u.
Cc1cc(C(=O)Nc2nc3cccc(C)c3n2[C@H]2CCCCN(C(=O)/C=C/CN(C)C)C2)ccn1,Trypanosoma brucei brucei,,CLK1 C215S mutant expressing,"5 x EC50, 24 h",,cell growth,967% and 753% and 1000%
CC1CCC2C(C)C(OC(=O)CCC(=O)N3CCC(Nc4ccc(S(=O)(=O)NC(=O)c5ccc(N6CCN(CC7=C(c8ccc(Cl)cc8)CC(C)(C)CC7)CC6)cc5Oc5cnc6[nH]ccc6c5)cc4[N+](=O)[O-])CC3)OC3OC4(C)CCC1C32OO4 (stereo not shown),THP-1,"annexin V/PI flow cytometry, item: annexin V+/PI+",,"0.8 µM, 24 h",,late apoptotic cells,15.6%
CSCC[C@H](N)C(=O)N[C@@H](C)C(=O)N[C@@H](Cc1c[nH]c2ccccc12)C(=O)N[C@@H](Cc1c[nH]cn1)C(=O)N[C@@H](CC(=O)O)C(=O)N[C@@H](CC(=O)O)C(=O)N[C@@H](CCC(=O)O)C(=O)N[C@@H](CCC(=O)O)C(=O)N[C@@H](Cc1ccccc1)C(=O)N[C@@H](C)C(=O)N[C@@H](CCCNC(=N)N)C(=O)N[C@@H](CCCNC(=N)N)C(=O)N[C@@H](CCCNC(=N)N)C(=O)N[C@@H](CCCNC(=N)N)C(=O)NCCCCCC(=O)NCCCCC(NC(=O)CCCCCNC(=O)[C@H](CCCNC(=N)N)NC(=O)[C@H](CCCNC(=N)N)NC(=O)[C@H](CCCNC(=N)N)NC(=O)[C@H](CCCNC(=N)N)NC(=O)[C@H](C)NC(=O)[C@H](Cc1ccccc1)NC(=O)[C@H](CCC(=O)O)NC(=O)[C@H](CCC(=O)O)NC(=O)[C@H](CC(=O)O)NC(=O)[C@H](CC(=O)O)NC(=O)[C@H](Cc1c[nH]cn1)NC(=O)[C@H](Cc1c[nH]c2ccccc12)NC(=O)[C@H](C)NC(=O)[C@@H](N)CCSC)C(=O)NCCCCC(NC(=O)C(CCCCNC(=O)CCCCCNC(=O)[C@H](CCCNC(=N)N)NC(=O)[C@H](CCCNC(=N)N)NC(=O)[C@H](CCCNC(=N)N)NC(=O)[C@H](CCCNC(=N)N)NC(=O)[C@H](C)NC(=O)[C@H](Cc1ccccc1)NC(=O)[C@H](CCC(=O)O)NC(=O)[C@H](CCC(=O)O)NC(=O)[C@H](CC(=O)O)NC(=O)[C@H](CC(=O)O)NC(=O)[C@H](Cc1c[nH]cn1)NC(=O)[C@H](Cc1c[nH]c2ccccc12)NC(=O)[C@H](C)NC(=O)[C@@H](N)CCSC)NC(=O)CCCCCNC(=O)[C@H](CCCNC(=N)N)NC(=O)[C@H](CCCNC(=N)N)NC(=O)[C@H](CCCNC(=N)N)NC(=O)[C@H](CCCNC(=N)N)NC(=O)[C@H](C)NC(=O)[C@H](Cc1ccccc1)NC(=O)[C@H](CCC(=O)O)NC(=O)[C@H](CCC(=O)O)NC(=O)[C@H](CC(=O)O)NC(=O)[C@H](CC(=O)O)NC(=O)[C@H](Cc1c[nH]cn1)NC(=O)[C@H](Cc1c[nH]c2ccccc12)NC(=O)[C@H](C)NC(=O)[C@@H](N)CCSC)C(N)=O (stereo partly shown),mouse bone marrow macrophages,"RT-qPCR, item: Mapk11 (p38β)",,"concentration not given, mean, unit not given, together with: RANKL",relative to: RANKL alone,mRNA level,1.2
CC(C)Cc1ccc(C(C)C(=O)[Se]CC(=O)Nc2cccc(C(F)(F)F)c2)cc1 (stereo not shown),NCI60 colon subpanel,NCI60 five-dose screen,,,,CC50,25.4 µM
Cc1cc(Oc2nc(N3CC[C@@H](c4ccncc4)C3)ncc2F)[nH]n1,U-87 MG,cell proliferation,,,,IC50,> 100 µM
COc1ccccc1-c1n[nH]c2nc(NC3CCN(C(=O)Cc4ccc(F)cc4F)CC3)ncc12,,"bead binding, competition bead pull-down, item: LINJ.35.3390",Leishmania donovani axenic amastigote extract,10 µM,relative to: vehicle,relative abundance,0.92
CC(C)[C@H](NC(=O)[C@H](CCCNC(=N)N)NC(=O)[C@@H]1CCCN1C(=O)[C@@H](NC(=O)[C@H](C)NC(=O)[C@H](Cc1ccc(O)cc1)NC(=O)[C@H](CCC(N)=O)NC(=O)[C@H](CCCCN)NC(=O)[C@H](CCCNC(=N)N)NC(=O)[C@@H]1CCCN1C(=O)[C@H](CCC(=O)O)NC(=O)[C@@H](NC(=O)[C@H](C)N)[C@@H](C)O)[C@@H](C)O)C(=O)N[C@@H](Cc1ccccc1)C(=O)N[C@@H](Cc1c[nH]c2ccccc12)C(=O)N[C@H](C(=O)N[C@@H](CC(=O)O)C(=O)N[C@@H](C)C(=O)N1CCC[C@H]1C(=O)NCC(=O)NCCOCCOCCOCCOCCOCCOCCOCCOCCOCCOCCOCCOCCC(=O)N[C@@H](CS)C(N)=O)[C@@H](C)O,H1437 lung adenocarcinoma,"cell binding, phage binding, item: output/input phage",,"10 min, 37 °C",relative to: control phage,selectivity ratio,3.6 ± 1.5
CC(C)CC(O)(CC(C)C)c1cn(C(=O)N2CCCC2)nn1,mouse T-cells,"protein abundance, unenriched SILAC proteomics, item: S100a6",,"1 nM, 6 h, single tryptic peptide",relative to: DMSO,SILAC ratio,1.14 and 0.93
O=C(C[Se]C(=O)c1ccccc1)Nc1cccc(C(F)(F)F)c1,NCI60 breast subpanel,NCI60 five-dose screen,,,,CC50,21.6 µM
CSCC[C@H](NC(=O)[C@@H](NC(=O)[C@H](CCC(N)=O)NC(=O)[C@H](CO)NC(=O)[C@@H](N)C(C)C)[C@@H](C)O)C(=O)N[C@@H](CCCNC(=N)N)C(=O)N[C@@H](CCC(N)=O)C(=O)N[C@H](C(=O)N[C@@H](C)C(=O)N[C@H](C(=O)N1CCC[C@H]1C(=O)N[C@@H](CC(C)C)C(=O)N[C@@H](CC(C)C)C(=O)N[C@@H](Cc1c[nH]c2ccccc12)C(=O)N[C@@H](Cc1ccccc1)C(=O)N[C@@H](Cc1c[nH]c2ccccc12)C(=O)N[C@H](C(=O)NCC(=O)N[C@@H](CO)C(=O)N[C@@H](CC(C)C)C(=O)NCCOCCOCCOCCOCCOCCOCCOCCOCCOCCOCCOCCOCCC(=O)N[C@@H](CS)C(N)=O)[C@@H](C)O)C(C)C)[C@@H](C)O,HCC827,phage binding,,,relative to: targeting over control phage,selectivity ratio,1.9 ± 0.66
COc1ccccc1-c1ccncc1C(=O)Nc1nnc(OCc2ccc(Cl)cc2)s1,HCT-116 BRCA2 wild-type,,,8 µM,relative to: untreated,colony survival,94.1%
CCCCNC(=O)c1ccc2nc(CC)c(N(C)Cc3ccc(OC)cc3)n2c1,bEnd.5 monolayer,,in vitro blood-brain barrier model,"IC50 and 1.5 x IC50, 48 h",relative to: untreated,transendothelial electrical resistance,increased
O=[N+]([O-])c1ccc(-n2nc(-c3ccc(F)cc3)cc2-c2ccc(F)cc2)c([N+](=O)[O-])c1,Neuro2a,H2DCF-DA flow cytometry,,"15 µM, 48 h",relative to: untreated uninfected cells,ROS reduction,~32%
O=C(C[Se]C(=O)c1ccco1)Nc1cccc(C(F)(F)F)c1,NCI60 CNS subpanel,NCI60 five-dose screen,,,,mean TGI,5.66 µM
CC(=O)NCSC[C@H](NC(=O)[C@@H]1CCCN1C(=O)[C@H](C)NC(=O)[C@@H](NC(=O)CNC(=O)[C@@H](NC(=O)[C@H](Cc1c[nH]c2ccccc12)NC(=O)[C@H](C)NC(=O)CNC(=O)[C@H](CO)NC(=O)[C@H](C)NC(=O)[C@@H]1CCCN1C(=O)[C@H](Cc1c[nH]c2ccccc12)NC(=O)[C@H](C)NC(=O)[C@H](C)NC(=O)[C@@H](N)Cc1ccc(O)cc1)[C@@H](C)O)[C@@H](C)O)C(=O)N[C@@H](CO)C(=O)N[C@@H](C)C(=O)NCC(=O)N[C@H](C(=O)NCCOCCOCCOCCOCCOCCOCCOCCOCCOCCOCCOCCOCCC(=O)N[C@@H](CS)C(N)=O)[C@@H](C)O,H1975 lung adenocarcinoma,"cell binding, phage binding, item: output/input phage",,"10 min, 37 °C",relative to: control phage,selectivity ratio,0.57 ± 0.25
COc1ccc(NC(=O)c2ccc3[nH]c(-c4ccc(N(C)C)cc4)nc3c2)cn1,HCT-116,"proximity ligation, item: endogenous ERK-MYD88 complex",,unit not given,relative to: DMSO,ERK-MYD88 interaction,0.469
Cc1cc(=O)oc2cc(OCCCCCC[Se]C#N)ccc12,"WiDr, multidrug-resistant",sulforhodamine B,,,,GI50,3.1 ± 0.9 µM
COc1ccccc1-c1n[nH]c2nc(N[C@H]3CC[C@H](NS(=O)(=O)CC(C)C)CC3)ncc12,,"bead binding, competition bead pull-down, item: LINJ.25.2230",Leishmania donovani extract,10 µM,relative to: vehicle,relative abundance,0.84
CC(C)(C)C(=O)OCOP(=O)(OCOC(=O)C(C)(C)C)C1CCCN(O)C1=O (stereo not shown),SW-620,,,,,TGI,42.6 µM
O=C(C[Se]C(=O)c1cccs1)Nc1cccc(C(F)(F)F)c1,NCI60 CNS subpanel,NCI60 five-dose screen,,,,mean TGI,3.23 µM
CC1OC2OC3C4=C(OC3(C)C12O)C(=O)c1c(O)cccc1C4=O (stereo not shown),SCC-40,sulforhodamine B,,"10 µg/mL, 48 h",negative means cell kill,growth percent,-32.5%

# For quick reference, copied from above:
SMILES,target or system,test,test system,setting,scale,measurement,value
CCCCNC(=O)c1ccc2nc(CC)c(N(C)Cc3ccc(OC)cc3)n2c1,bEnd.5 monolayer,,in vitro blood-brain barrier model,"IC50 and 1.5 x IC50, 48 h",relative to: untreated,transendothelial electrical resistance,increased
O=[N+]([O-])c1ccc(-n2nc(-c3ccc(F)cc3)cc2-c2ccc(F)cc2)c([N+](=O)[O-])c1,Neuro2a,H2DCF-DA flow cytometry,,"15 µM, 48 h",relative to: untreated uninfected cells,ROS reduction,~32%
